Assay results pooled from the literature.
Compare with care: the assays were run in different laboratories.
Chain of UniProt Q9UKI8 (whole entry, looked up): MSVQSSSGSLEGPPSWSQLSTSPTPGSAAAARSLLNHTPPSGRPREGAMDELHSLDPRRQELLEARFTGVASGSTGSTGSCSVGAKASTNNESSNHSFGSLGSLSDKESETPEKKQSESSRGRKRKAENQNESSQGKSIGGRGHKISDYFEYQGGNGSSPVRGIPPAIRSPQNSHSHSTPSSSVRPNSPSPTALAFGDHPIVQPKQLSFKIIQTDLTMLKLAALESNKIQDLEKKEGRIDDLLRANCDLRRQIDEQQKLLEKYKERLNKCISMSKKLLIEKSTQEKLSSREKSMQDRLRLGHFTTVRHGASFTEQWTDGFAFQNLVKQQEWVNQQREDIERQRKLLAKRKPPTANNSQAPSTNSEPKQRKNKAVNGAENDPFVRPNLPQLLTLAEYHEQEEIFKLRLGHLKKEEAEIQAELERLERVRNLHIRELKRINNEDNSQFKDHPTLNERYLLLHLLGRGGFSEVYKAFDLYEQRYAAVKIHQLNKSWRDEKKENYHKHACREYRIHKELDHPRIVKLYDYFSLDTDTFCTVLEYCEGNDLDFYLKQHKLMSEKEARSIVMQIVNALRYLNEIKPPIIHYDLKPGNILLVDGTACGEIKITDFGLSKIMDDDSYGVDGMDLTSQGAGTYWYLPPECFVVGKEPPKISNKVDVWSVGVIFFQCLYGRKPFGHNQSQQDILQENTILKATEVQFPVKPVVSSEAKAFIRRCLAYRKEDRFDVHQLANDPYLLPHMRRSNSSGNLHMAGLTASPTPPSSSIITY
Chain of UniProt Q9Y5S2 (whole entry, looked up): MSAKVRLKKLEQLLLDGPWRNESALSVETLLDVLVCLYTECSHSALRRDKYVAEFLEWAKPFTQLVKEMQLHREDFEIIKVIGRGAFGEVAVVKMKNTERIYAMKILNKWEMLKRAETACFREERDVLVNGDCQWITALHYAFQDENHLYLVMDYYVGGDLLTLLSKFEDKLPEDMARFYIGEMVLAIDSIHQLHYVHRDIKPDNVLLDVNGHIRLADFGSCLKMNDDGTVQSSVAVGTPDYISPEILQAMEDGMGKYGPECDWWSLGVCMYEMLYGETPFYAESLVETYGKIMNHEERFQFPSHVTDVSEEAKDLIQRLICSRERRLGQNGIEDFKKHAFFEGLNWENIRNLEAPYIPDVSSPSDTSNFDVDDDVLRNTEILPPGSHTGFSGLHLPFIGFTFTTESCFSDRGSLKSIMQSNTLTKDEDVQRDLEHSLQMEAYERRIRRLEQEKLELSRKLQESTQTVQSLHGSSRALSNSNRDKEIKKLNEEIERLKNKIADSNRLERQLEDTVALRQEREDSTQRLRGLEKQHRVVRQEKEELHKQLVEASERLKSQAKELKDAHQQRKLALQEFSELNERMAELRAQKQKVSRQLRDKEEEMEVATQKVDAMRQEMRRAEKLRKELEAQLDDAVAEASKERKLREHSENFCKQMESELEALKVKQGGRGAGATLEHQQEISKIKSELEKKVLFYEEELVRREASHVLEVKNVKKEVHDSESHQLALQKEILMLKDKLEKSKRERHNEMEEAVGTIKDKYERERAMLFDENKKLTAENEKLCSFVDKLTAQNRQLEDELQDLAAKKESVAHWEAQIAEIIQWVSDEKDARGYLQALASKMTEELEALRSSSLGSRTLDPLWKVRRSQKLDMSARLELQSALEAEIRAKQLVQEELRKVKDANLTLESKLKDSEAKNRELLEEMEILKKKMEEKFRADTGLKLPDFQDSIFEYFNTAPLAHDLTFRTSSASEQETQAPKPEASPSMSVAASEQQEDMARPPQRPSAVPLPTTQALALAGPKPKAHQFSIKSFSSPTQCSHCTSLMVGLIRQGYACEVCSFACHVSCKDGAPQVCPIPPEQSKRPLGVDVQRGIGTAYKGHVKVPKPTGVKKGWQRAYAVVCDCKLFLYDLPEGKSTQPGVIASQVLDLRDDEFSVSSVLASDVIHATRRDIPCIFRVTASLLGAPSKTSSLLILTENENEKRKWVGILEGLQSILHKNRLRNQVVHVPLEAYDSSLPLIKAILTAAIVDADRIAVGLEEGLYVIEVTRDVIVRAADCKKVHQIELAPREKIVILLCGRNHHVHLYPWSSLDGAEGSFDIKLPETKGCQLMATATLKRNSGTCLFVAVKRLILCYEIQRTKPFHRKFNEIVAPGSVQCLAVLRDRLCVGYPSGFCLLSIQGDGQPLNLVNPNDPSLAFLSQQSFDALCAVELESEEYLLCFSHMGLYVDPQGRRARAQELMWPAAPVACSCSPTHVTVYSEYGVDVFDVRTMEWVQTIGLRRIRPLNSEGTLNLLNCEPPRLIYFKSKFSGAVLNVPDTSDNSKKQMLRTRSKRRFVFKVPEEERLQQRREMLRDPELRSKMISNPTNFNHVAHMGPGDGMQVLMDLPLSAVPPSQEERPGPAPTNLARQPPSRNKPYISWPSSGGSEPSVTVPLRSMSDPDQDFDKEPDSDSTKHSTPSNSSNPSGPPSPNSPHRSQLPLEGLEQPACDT
Chain of UniProt Q9Y2H9 (whole entry, looked up): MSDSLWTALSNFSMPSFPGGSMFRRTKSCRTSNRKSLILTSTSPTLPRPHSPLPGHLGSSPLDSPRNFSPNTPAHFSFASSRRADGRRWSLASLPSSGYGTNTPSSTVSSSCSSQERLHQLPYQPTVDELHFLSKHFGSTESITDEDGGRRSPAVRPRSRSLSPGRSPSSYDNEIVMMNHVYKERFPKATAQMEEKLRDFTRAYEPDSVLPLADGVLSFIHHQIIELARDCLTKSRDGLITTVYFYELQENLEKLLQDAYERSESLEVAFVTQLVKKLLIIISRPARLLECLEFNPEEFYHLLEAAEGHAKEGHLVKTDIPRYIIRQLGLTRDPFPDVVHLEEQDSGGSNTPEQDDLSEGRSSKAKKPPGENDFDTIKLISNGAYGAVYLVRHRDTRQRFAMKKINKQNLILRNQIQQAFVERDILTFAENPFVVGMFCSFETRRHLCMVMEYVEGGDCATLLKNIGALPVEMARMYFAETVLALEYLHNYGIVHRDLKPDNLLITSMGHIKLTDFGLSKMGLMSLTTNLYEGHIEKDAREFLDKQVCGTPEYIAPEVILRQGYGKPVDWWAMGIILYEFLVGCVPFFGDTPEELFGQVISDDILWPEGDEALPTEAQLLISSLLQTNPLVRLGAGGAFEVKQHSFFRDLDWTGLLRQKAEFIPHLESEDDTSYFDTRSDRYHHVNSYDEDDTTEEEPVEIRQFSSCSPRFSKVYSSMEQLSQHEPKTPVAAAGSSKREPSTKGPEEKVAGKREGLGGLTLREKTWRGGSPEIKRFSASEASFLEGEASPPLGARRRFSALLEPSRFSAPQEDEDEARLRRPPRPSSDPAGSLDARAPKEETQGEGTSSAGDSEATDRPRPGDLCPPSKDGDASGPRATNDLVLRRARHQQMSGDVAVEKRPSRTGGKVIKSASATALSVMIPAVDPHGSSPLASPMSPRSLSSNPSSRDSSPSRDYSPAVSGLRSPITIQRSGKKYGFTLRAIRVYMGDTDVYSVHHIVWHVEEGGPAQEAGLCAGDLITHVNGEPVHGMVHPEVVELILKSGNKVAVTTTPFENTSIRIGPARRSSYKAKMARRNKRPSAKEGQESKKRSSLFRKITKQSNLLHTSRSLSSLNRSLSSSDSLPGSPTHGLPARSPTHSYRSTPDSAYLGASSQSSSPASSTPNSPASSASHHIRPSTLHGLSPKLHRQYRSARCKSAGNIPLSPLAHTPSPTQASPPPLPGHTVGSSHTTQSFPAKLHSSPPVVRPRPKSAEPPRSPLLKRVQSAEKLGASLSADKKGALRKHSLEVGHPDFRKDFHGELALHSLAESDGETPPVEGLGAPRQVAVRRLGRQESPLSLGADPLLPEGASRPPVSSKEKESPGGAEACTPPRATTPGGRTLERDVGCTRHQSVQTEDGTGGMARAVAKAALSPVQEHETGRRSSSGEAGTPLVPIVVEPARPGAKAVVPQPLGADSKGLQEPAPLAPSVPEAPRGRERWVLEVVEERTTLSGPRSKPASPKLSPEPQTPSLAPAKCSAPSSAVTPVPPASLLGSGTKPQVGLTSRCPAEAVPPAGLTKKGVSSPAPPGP

Compound | target or system | assay | conditions | measurement | value
C[N+]1=C2C=C(NCCc3ccc(O)cc3)C(=O)c3[nH]cc(c32)CC1 | HeLa | cell growth or viability, MTT | 72 h | CC50 | 0.5 µM
COC(=O)C=Cc1ccc(OC(C)=O)c(OC)c1 | HaCaT | cell growth or viability, MTT | 24 h | CC50 | > 250 µM
Cn1cc2c3c1C(=O)C(N)=CC3=NCC2 | HeLa | cell growth or viability, MTT | 72 h | CC50 | 2 µM
CC(C)(C)[C@H](NC(=O)C(F)(F)F)C(=O)N1C[C@H]2[C@@H]([C@H]1C(=O)N[C@H](C#N)C[C@@H]1CCNC1=O)C2(C)C | Vero | cell growth or viability | – | CC50 | > 100 µM
Nc1ncc(-c2nc(N3CCOCC3)nc(N3CCOCC3)n2)c(C(F)F)n1 | Serine/threonine-protein kinase tousled-like 1 (TLK1, Homo sapiens, UniProt Q9UKI8) | binding, competition with immobilised ligand | 10 µM | remaining binding | 92%
CC(C)[C@H](NC(=O)c1ccccc1NC(=O)c1ccc(O)cc1)C(=O)N[C@H](CO)C(C)C | MRC5 | cell growth or viability, MTT | 72 h | CC50 | > 250 µM
COC(=O)C=Cc1ccc(OC)c(OC)c1 | HaCaT | cell growth or viability, MTT | 24 h | CC50 | > 250 µM
O=c1nc(NO)ccn1[C@@H]1O[C@H](CO)[C@@H](O)[C@H]1O | Vero | cell growth or viability | – | CC50 | 24.3 µM
Cc1nn(C)cc1-c1nc2c(N3CCN(Cc4ccc(Cl)cc4)CC3)c(Cl)cnc2[nH]1 | Microtubule-associated serine/threonine-protein kinase 1 (MAST1, Homo sapiens, UniProt Q9Y2H9) | binding, competition with immobilised ligand | 1 µM | remaining binding | 100%
CCNC(=O)[C@@H](NC(=O)c1ccccc1NC(=O)c1ccc(OC)cc1)C(C)C | MRC5 | cell growth or viability, MTT | 72 h | CC50 | > 250 µM
[2H]c1c([2H])c([C@]2([2H])CCCN2C(=O)C(C)(C)Oc2ccc3cn[nH]c3c2)c([2H])c([2H])c1C([2H])([2H])[2H] | Serine/threonine-protein kinase MRCK beta (CDC42BPB, Homo sapiens, UniProt Q9Y5S2) | binding, competition with immobilised ligand | 1 µM | remaining binding | 71%
COc1ncccc1-c1cnn2ccc(N3CCN(C(=O)OC(C)C)CC3)nc12 | TRAF2 and NCK-interacting protein kinase (TNIK, Homo sapiens, UniProt Q9UKE5) | binding, competition with immobilised ligand | 1 µM | remaining binding | 83%

Some of these lines once more:
Compound | target or system | assay | conditions | measurement | value
C[N+]1=C2C=C(NCCc3ccc(O)cc3)C(=O)c3[nH]cc(c32)CC1 | HeLa | cell growth or viability, MTT | 72 h | CC50 | 0.5 µM
